Results gathered from unrelated publications.
Compare with care: the assays were run in different laboratories. ± marks the error that the study gave.

With `CC(C)(C)c1ccc(O)c(CN(Cc2cc(C(C)(C)C)ccc2O)C2CCC(NC(N)=O)CC2)c1` (stereo not drawn) the Tmax was ≤ 30 min (C57BL/6 mice, male, plasma and brain; intraperitoneal, 25 mg/kg).
For `C=C1C(=O)O[C@H]2[C@H]1CC/C(CO)=C\CC[C@@]1(C)O[C@@H]21`, the Tmax was 120 ± 20 min (BALB/c male mice, plasma; oral, 757.0 µmol/kg).
`CCN1/C(=C/C(C)=O)Sc2ccc(F)cc21` has a Tmax of 30 min (male mice, blood and brain; intraperitoneal).
The Tmax of `Nc1ncn([C@H]2C[C@H](O)[C@@H](CO)O2)c(=O)n1` is reported as 15 min (UHPLC-MS/MS; C57BL/6 mice, female, plasma; oral, 0.4 mg/kg).
`Cc1c(C(=O)O)ccc2c3n(nc12)[C@@H]1[C@H](C3)N(CC2CC2)[C@@]2(C(=O)Nc3cc(Cl)ccc32)[C@H]1c1cccc(Cl)c1F` has a Tmax of 840 min (female BALB/c nude mice, SJSA-1 xenograft, plasma; oral, 1 mg/kg twice daily, 2 doses, individual animals).
The Tmax of `CN[C@@H](C)C(=O)N[C@H]1CN(C(=O)CC(C)C)CC[C@H]2CC[C@@H](C(=O)NC(c3ccccc3)c3ccccc3)N2C1=O` is reported as 15 min (SCID mice, MDA-MB-231 xenograft, blood, lung, kidney, liver; oral).
With `CCc1nc(C(N)=O)c(Nc2ccc(N3CCC(N4CCN(C)CC4)CC3)c(OC)c2)nc1NC1CCOCC1` the Tmax was 360 min (female FVB mice, OCT1/2 knockout, plasma; oral, 10 mg/kg, single dose).
For `COc1cc([C@H]2Oc3ccc([C@H]4Oc5cc(O)cc(O)c5C(=O)[C@@H]4O)cc3O[C@@H]2CO)ccc1O`, the Tmax was 15 min (FVB wild-type mice, plasma; oral gavage, 500 mg/kg silymarin, median).
`CCN1CCN(Cc2ccc(NC(=O)c3ccc(C)c(NC(=O)c4cncc(-c5cccs5)c4)c3)cc2C(F)(F)F)CC1` has a Tmax of 15 min (C57BL/6 mice, epithelial lining fluid; intraperitoneal, 15 mg/kg).
The Tmax of `COCc1cc(C(=O)Nc2cc([C@H]3CC[C@@H](OC(=O)NC(C)C)C3)[nH]n2)n(C)n1` is reported as 450 min (OVCAR-3 xenograft, NOD/SCID gamma mice, plasma; oral, 50 twice daily, PK/PD study).
`NC(=O)c1cc(Oc2ccc(NC(=O)Nc3ccc(Cl)c(C(F)(F)F)c3)c(F)c2)cc[n+]1[O-]` has a Tmax of 450 min (Oatp1b2 knockout mice, plasma; oral, 10 mg/kg regorafenib).
For `CCN(c1cc(-c2ccc(CN3CCOCC3)cc2)cc(C(=O)NCc2c(C)cc(C)[nH]c2=O)c1C)C1CCOCC1`, the Tmax was 30 min (female CB17 SCID mice, HT-1376 xenograft, plasma; 75 mg/kg, day 1).
`COc1cc([C@H]2Oc3cc([C@H]4Oc5cc(O)cc(O)c5C(=O)[C@@H]4O)ccc3O[C@@H]2CO)ccc1O` gave a Tmax of 15 min (FVB wild-type mice, plasma; oral gavage, 500 mg/kg silymarin, median).
`CC(C)(C)c1sc2ncnc(Oc3c(F)cccc3OC(F)(F)F)c2c1-c1ccc(Cl)cc1` gave a Tmax of 15 min (wild-type mice, plasma; intravenous, 1 mg/kg).
`Cc1ncsc1-c1ccc(CNC(=O)[C@@H]2C[C@@H](O)CN2C(=O)[C@@H](NC(=O)CCCCCCCCCC(=O)N2CCN(CC[C@H](NC(=O)C3(N)CCN(c4ncnc5[nH]ccc45)CC3)c3ccc(Cl)cc3)CC2)C(C)(C)C)cc1` gave a Tmax of 60 min (male Swiss albino mice, plasma; intraperitoneal, 75 mg/kg, single dose).
